{"data": "Assay results from different studies", "PPARG ligand-binding domain": "Peroxisome proliferator-activated receptor gamma, ligand-binding domain (PPARG, Homo sapiens, UniProt P37231)", "Rhomboid protease AarA": "Rhomboid protease AarA (Providencia stuartii, UniProt P46116)", "PPARG": "Peroxisome proliferator-activated receptor gamma (PPARG, Homo sapiens, UniProt P37231)", "note": "Lines come from different studies, so protocols differ. Values joined by “and” are separate records of one study, mostly repeats; a detail may differ. ± gives the spread as reported.", "chain of UniProt P37231 (whole entry, looked up)": "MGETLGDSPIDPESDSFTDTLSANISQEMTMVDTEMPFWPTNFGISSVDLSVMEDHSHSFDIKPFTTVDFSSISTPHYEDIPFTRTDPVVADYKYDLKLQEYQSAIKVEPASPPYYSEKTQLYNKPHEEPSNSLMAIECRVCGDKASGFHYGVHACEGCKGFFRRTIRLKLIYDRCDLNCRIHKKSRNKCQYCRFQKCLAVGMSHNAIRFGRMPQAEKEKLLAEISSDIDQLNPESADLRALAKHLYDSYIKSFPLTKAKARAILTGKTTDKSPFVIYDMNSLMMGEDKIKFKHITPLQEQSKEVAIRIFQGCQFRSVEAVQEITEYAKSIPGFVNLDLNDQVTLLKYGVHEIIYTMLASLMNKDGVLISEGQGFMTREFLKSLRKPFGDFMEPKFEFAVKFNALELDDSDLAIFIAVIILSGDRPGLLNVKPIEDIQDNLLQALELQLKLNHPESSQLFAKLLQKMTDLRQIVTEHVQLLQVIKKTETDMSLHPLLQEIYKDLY", "chain of UniProt P46116 (whole entry, looked up)": "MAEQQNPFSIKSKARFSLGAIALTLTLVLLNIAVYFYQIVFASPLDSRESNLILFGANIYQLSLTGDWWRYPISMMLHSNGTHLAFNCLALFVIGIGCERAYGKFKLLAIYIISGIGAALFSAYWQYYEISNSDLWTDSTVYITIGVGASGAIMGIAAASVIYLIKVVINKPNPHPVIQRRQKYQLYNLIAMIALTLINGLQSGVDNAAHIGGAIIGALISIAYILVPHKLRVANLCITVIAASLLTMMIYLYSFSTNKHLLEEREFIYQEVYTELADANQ", "chain of UniProt P21741 (whole entry, looked up)": "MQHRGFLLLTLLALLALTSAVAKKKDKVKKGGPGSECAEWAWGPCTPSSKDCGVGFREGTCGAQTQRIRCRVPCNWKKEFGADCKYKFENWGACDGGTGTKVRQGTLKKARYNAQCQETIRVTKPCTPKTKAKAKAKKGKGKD", "chain of UniProt Q13547 (whole entry, looked up)": "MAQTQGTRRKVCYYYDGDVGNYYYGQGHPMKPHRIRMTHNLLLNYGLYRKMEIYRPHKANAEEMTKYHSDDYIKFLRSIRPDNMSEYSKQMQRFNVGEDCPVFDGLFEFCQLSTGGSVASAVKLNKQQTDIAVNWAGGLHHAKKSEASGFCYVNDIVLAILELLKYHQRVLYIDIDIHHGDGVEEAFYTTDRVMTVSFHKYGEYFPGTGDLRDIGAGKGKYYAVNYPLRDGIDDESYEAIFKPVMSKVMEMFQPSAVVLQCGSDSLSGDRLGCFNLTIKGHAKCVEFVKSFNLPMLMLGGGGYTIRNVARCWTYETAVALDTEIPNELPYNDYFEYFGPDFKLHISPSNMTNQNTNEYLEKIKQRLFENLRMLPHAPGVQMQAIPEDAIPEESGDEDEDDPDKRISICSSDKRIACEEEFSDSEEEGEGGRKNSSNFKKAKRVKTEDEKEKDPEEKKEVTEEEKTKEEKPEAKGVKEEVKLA", "chain of UniProt Q14524 (whole entry, looked up)": "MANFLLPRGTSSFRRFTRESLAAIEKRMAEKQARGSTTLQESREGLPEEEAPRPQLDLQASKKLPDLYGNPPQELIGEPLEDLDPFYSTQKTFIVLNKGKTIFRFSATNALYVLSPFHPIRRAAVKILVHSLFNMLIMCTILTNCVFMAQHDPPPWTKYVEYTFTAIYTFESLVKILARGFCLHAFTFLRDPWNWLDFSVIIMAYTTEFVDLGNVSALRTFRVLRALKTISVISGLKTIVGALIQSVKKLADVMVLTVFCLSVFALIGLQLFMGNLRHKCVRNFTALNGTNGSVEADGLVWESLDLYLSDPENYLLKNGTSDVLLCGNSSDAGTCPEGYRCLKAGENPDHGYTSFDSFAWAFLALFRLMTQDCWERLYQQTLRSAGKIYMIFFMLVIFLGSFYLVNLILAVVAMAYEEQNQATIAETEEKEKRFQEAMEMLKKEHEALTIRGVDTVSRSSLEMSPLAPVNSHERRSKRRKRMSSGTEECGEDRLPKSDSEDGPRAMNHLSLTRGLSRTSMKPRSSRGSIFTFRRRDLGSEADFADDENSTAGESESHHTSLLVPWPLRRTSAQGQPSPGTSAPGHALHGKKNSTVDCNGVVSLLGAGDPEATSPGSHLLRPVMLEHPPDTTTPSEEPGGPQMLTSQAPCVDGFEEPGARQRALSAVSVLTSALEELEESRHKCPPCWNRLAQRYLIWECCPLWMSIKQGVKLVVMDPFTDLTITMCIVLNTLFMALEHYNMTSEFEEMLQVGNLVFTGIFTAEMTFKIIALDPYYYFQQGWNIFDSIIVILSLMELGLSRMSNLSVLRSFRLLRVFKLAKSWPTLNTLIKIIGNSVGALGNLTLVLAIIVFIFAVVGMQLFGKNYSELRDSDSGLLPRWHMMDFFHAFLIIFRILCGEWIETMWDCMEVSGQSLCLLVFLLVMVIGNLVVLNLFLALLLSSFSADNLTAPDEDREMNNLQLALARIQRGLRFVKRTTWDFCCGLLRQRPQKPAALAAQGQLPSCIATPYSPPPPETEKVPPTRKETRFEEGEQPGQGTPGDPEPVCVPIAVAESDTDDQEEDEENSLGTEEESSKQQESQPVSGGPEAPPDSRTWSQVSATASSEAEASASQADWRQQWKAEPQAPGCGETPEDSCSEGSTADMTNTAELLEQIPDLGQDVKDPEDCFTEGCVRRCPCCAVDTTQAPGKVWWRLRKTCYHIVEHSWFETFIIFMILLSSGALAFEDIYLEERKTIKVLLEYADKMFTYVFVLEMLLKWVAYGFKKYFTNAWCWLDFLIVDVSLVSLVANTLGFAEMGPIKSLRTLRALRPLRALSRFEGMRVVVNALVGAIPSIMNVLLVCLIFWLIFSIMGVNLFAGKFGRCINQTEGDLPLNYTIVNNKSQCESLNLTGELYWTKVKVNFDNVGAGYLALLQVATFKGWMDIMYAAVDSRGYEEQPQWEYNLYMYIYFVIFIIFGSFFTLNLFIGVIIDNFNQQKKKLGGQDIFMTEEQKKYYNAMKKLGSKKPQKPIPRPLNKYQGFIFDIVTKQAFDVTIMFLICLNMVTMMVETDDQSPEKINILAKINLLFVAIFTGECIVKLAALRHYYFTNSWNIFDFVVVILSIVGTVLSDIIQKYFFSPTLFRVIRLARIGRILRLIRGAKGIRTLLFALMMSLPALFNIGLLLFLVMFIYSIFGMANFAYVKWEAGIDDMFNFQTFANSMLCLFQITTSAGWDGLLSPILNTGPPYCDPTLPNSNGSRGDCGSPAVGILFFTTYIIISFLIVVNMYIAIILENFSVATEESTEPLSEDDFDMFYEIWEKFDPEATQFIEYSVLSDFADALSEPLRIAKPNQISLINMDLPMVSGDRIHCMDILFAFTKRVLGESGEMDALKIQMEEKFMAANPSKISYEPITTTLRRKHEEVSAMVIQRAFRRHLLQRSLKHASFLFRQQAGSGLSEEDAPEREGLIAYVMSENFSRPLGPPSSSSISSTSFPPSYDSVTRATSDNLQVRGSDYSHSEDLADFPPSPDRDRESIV", "chain of UniProt P43358 (whole entry, looked up)": "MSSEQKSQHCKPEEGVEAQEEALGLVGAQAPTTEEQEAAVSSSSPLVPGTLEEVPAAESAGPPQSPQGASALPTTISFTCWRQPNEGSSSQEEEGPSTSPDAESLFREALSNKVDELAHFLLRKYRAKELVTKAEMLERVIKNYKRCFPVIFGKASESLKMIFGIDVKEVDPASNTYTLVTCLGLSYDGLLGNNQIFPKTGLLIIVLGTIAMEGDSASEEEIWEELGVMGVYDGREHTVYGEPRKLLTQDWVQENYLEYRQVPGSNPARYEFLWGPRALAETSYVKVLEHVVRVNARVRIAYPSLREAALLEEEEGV", "chain of UniProt P03952 (whole entry, looked up)": "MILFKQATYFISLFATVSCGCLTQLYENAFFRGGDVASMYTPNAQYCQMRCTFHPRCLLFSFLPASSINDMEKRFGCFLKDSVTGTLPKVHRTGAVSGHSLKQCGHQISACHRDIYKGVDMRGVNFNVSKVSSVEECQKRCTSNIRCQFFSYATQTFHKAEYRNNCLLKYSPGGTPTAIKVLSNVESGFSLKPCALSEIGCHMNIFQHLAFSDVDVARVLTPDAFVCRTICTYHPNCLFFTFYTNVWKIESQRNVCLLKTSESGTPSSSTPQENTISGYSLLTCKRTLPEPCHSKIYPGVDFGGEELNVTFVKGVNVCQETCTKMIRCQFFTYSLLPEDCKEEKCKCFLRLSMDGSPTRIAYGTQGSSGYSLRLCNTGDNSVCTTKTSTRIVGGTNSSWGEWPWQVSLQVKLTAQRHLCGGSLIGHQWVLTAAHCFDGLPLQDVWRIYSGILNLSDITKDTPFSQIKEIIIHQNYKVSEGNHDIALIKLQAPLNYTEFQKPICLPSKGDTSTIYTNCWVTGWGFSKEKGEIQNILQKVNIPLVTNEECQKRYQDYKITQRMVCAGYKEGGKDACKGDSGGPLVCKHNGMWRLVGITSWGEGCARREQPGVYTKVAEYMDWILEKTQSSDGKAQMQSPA", "chain of UniProt P51681 (whole entry, looked up)": "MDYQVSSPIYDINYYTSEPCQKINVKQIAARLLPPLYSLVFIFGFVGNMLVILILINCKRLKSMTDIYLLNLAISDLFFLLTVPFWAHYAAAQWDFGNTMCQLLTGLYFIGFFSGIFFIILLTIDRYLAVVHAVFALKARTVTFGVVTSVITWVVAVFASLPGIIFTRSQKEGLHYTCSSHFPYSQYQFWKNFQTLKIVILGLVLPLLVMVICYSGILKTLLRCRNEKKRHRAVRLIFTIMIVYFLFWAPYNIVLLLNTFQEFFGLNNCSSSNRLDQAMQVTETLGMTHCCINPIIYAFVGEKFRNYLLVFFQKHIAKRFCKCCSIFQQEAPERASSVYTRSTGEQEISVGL"}
{"SMILES": "Cc1c(Cc2ccc(OC(C)C(=O)O)cc2)c2ccc(C(=O)N[C@@H](C)c3cccc(C(C)C)c3)cc2n1C (some centres unmarked)", "target": "PPARG ligand-binding domain", "assay": "reporter gene, luciferase reporter", "system": "HEK293T, Gal4-PPARγ LBD", "IC50": "6760 nM"}
{"SMILES": "Cc1nc2c(F)cc(-c3nc(Nc4ccc(C(=O)NCCCCCCC(=O)NO)cc4)ncc3F)cc2n1C(C)C", "target": "HDAC1 (Homo sapiens, UniProt Q13547)", "assay": "enzyme activity, inhibitor", "IC50": "11 nM"}
{"SMILES": "O=C1C(Cl)=C(NCCN2CCOCC2)C(=O)c2ncccc21", "target": "KMT5A (Homo sapiens, UniProt Q9NQR1, C311S)", "assay": "enzyme activity, radiometric filter", "setting": "8 h, 1 µM enzyme C270S variant, with: 0.75 µM SAM, 1.5 µM H4K20 peptide", "IC50": "2200 nM"}
{"SMILES": "CCOc1cc(CN2CC3(CC(N4CCC(C(=O)O)CC4)=NO3)C2)cc(OCC)c1-c1ccc(F)cc1", "target": "SSTR5 (Homo sapiens, UniProt P35346, F264A)", "assay": "cAMP level, antagonist, GloSensor", "system": "AD293", "setting": "F264A mutant, bandwidth 6.51, with: CST17 EC80 and forskolin", "IC50": "550 nM"}
{"SMILES": "Cc1nn(-c2cccc(N)c2)c(=O)c2cnc(Nc3ccc(N4CCNCC4)cc3)nc12", "target": "TBK1 (Homo sapiens, UniProt Q9UHD2)", "assay": "enzyme activity, inhibitor", "IC50": "> 10000 nM"}
{"SMILES": "COCCNC(=O)c1ccc(NC(=O)C(C(F)(F)F)C(F)(F)F)cc1", "target": "Rhomboid protease AarA", "assay": "enzyme activity, inhibitor, fluorescence", "IC50": "36000 nM"}
{"SMILES": "COc1ccc(O[C@@H]2O[C@H](COS(=O)(=O)O)[C@H](OS(=O)(=O)O)[C@H](O[C@@H]3O[C@H](C(=O)OCc4ccccc4)[C@@H](O[C@@H]4O[C@H](COS(=O)(=O)O)[C@H](OS(=O)(=O)O)[C@H](O[C@@H]5O[C@H](C(=O)OCc6ccccc6)[C@@H](OS(=O)(=O)O)[C@H](OCc6ccccc6)[C@H]5OC(=O)c5ccccc5)[C@H]4NC(=O)C(F)(F)F)[C@H](OCc4ccccc4)[C@H]3OC(=O)c3ccccc3)[C@H]2NC(=O)C(F)(F)F)cc1", "target": "Midkine (Homo sapiens, UniProt P21741)", "assay": "heparin hexasaccharide binding, fluorescence polarisation competition", "setting": "with: fluorescein-labelled hexasaccharide probe", "IC50": "3400 nM and 4600 nM and 3500 nM"}
{"SMILES": "O=C1CC(c2ccccc2)N1S(=O)(=O)c1cccc(-c2ccccc2)c1 (centres unmarked)", "target": "Rhomboid protease AarA", "assay": "enzyme activity, inhibitor, fluorogenic peptide", "setting": "38 min pre-incubation", "IC50": "17000 nM"}
{"SMILES": "CC[C@H](C)[C@@H]1NC(=O)[C@H](Cc2ccc(O)cc2)NC(=O)CSC[C@@H](C(N)=O)NC(=O)[C@H](CC(N)=O)NC(=O)[C@H](Cc2cnc[nH]2)NC(=O)[C@H](Cc2ccc(O)cc2)NC(=O)[C@H](CC(=O)O)NC(=O)[C@H](Cc2ccc(O)cc2)NC(=O)[C@H](CC(C)C)NC(=O)[C@H](CCCNC(=N)N)NC1=O", "target": "Melanoma-associated antigen 4, MAGE homology domain (Homo sapiens, UniProt P43358)", "assay": "binding, TR-FRET displacement", "setting": "with: Alexa647-labelled compound tracer", "IC50": "24.1 ± 8.6 nM"}
{"SMILES": "Cc1c(Cc2ccc(Cl)c(OCC(=O)O)c2)c2ccc(C(=O)NCc3ccc(C(C)(C)C)cc3)cc2n1C", "target": "PPARG", "assay": "ligand displacement, TR-FRET", "IC50": "5.54 nM"}
{"SMILES": "CNC(=O)c1ccc(NC(=O)C(C(F)(F)F)C(F)(F)F)cc1", "target": "Rhomboid protease AarA", "assay": "enzyme activity, inhibitor, fluorescence", "IC50": "29000 nM"}
{"SMILES": "Cc1c(Cc2cccc(OC(C)(C)C(=O)O)c2)c2ccc(C(=O)N[C@@H](C)c3ccc(C4CC4)cc3)cc2n1C", "target": "PPARG ligand-binding domain", "assay": "reporter gene, luciferase reporter", "system": "HEK293T, Gal4-PPARγ LBD", "IC50": "1190 nM"}
{"SMILES": "COc1ccc2c(c1)CN(C(=O)CCN1CCC(Cc3ccccc3)CC1)CCS2", "target": "SCN5A (Homo sapiens, UniProt Q14524)", "assay": "INa current, inhibitor, whole-cell patch clamp", "system": "stable cell line", "IC50": "1700 nM"}
{"SMILES": "Cc1c(Cc2cc(Cl)cc(OC(C)C(=O)O)c2)c2ccc(C(=O)NC(C)c3ccc(C(C)(C)C)cc3)cc2n1CC1CC1 (centres unmarked)", "target": "PPARG", "assay": "ligand displacement, TR-FRET", "IC50": "26.3 nM"}
{"SMILES": "OB1c2sccc2C=NN1Cc1ccccc1", "target": "Plasma kallikrein (KLKB1, Homo sapiens, UniProt P03952)", "assay": "enzyme activity, inhibitor", "IC50": "> 100000 nM"}
{"SMILES": "Cc1c(Cc2cccc(OC(C)(C)C(=O)O)c2)c2ccc(C(=O)NCc3ccc(C(C)(C)C)cc3)cc2n1CC1CCC1", "target": "PPARG ligand-binding domain", "assay": "reporter gene, luciferase reporter", "system": "HEK293T, Gal4-PPARγ LBD", "IC50": "230 nM"}
{"SMILES": "Cc1nnc(-c2ccc(CC(=O)NC(CCN3C4CCC3CC(n3c(C)nnc3C(C)C)C4)c3ccccc3)cc2)nn1 (centres unmarked)", "target": "CCR5 (Homo sapiens, UniProt P51681)", "assay": "calcium mobilization, antagonist", "system": "HEK-293T", "setting": "2 h preincubation, top constrained to 1, with: 0.1 µM PSC-RANTES", "IC50": "19.5 nM"}
{"note": "A few entries again:"}
{"SMILES": "COc1ccc(O[C@@H]2O[C@H](COS(=O)(=O)O)[C@H](OS(=O)(=O)O)[C@H](O[C@@H]3O[C@H](C(=O)OCc4ccccc4)[C@@H](O[C@@H]4O[C@H](COS(=O)(=O)O)[C@H](OS(=O)(=O)O)[C@H](O[C@@H]5O[C@H](C(=O)OCc6ccccc6)[C@@H](OS(=O)(=O)O)[C@H](OCc6ccccc6)[C@H]5OC(=O)c5ccccc5)[C@H]4NC(=O)C(F)(F)F)[C@H](OCc4ccccc4)[C@H]3OC(=O)c3ccccc3)[C@H]2NC(=O)C(F)(F)F)cc1", "target": "Midkine (Homo sapiens, UniProt P21741)", "assay": "heparin hexasaccharide binding, fluorescence polarisation competition", "setting": "with: fluorescein-labelled hexasaccharide probe", "IC50": "3400 nM and 4600 nM and 3500 nM"}
